Results from different studies.
Each numbered part is a random draw from the data of one study; scales do not carry over between parts.
Sequence of UniProt Q8IYT8 (whole entry, looked up): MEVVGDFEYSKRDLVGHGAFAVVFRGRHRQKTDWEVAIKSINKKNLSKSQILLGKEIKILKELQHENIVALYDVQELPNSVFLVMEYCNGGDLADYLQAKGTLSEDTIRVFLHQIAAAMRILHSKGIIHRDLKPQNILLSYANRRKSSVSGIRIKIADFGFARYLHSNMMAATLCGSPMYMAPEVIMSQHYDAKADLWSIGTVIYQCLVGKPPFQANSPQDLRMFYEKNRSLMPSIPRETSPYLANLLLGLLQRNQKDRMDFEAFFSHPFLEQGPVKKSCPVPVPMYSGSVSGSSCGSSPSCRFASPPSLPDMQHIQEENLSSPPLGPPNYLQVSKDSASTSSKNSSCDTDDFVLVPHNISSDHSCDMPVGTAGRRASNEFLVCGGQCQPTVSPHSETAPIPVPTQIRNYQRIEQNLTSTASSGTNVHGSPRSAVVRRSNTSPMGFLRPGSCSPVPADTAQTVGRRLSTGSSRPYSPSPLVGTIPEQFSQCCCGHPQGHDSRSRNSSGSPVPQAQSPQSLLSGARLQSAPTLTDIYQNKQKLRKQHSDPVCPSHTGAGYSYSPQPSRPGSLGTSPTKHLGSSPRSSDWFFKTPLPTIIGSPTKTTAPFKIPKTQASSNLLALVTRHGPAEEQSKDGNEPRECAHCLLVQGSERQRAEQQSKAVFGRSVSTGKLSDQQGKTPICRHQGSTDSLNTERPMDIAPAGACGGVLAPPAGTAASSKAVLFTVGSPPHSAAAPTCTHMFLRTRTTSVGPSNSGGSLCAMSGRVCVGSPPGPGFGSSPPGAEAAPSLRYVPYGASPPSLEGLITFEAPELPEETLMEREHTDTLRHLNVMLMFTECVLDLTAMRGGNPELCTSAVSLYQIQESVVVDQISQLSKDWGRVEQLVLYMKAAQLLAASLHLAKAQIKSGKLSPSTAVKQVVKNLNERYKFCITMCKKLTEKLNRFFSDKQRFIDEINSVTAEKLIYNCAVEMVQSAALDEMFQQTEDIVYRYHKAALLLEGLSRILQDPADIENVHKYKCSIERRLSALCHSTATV
Sequence of UniProt P42685 (whole entry, looked up): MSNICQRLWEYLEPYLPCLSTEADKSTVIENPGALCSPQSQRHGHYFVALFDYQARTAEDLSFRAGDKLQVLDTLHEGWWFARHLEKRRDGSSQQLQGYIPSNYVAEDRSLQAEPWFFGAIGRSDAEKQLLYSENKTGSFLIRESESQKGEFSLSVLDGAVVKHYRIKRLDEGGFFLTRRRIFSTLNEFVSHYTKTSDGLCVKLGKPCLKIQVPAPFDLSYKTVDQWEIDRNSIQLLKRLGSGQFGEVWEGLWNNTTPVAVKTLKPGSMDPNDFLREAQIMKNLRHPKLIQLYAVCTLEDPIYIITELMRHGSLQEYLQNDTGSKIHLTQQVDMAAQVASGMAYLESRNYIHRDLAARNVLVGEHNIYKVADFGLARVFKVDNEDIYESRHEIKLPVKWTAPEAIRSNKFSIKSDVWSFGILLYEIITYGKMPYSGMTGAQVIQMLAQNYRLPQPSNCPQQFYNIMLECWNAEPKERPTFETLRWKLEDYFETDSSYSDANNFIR
Sequence of UniProt P10721 (whole entry, unmodified, looked up): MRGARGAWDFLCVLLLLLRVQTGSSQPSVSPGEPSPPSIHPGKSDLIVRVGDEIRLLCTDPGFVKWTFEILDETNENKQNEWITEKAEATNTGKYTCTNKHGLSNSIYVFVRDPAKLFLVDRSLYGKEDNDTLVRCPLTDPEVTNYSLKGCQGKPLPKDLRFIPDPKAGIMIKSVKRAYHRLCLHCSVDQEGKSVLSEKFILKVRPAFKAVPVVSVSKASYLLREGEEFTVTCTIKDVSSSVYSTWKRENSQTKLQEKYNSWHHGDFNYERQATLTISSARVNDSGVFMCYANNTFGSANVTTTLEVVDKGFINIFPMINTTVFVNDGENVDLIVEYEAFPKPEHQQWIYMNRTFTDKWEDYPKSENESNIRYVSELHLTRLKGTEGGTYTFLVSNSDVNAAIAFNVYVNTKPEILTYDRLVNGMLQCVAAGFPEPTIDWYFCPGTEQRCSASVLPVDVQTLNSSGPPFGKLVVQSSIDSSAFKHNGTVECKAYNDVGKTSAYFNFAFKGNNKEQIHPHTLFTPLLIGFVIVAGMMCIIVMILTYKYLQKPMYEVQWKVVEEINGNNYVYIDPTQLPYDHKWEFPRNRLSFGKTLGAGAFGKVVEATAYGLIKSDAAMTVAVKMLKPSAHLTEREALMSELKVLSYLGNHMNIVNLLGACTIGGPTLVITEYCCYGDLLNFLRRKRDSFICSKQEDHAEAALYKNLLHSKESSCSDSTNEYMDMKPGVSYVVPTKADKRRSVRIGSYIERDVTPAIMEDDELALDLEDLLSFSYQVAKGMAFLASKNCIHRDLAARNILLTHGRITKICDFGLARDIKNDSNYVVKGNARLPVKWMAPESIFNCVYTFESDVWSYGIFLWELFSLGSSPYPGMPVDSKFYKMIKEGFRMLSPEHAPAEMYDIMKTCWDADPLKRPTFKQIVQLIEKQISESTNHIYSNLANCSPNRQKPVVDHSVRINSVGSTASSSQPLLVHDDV
Sequence of UniProt Q9BRS2 (whole entry, looked up): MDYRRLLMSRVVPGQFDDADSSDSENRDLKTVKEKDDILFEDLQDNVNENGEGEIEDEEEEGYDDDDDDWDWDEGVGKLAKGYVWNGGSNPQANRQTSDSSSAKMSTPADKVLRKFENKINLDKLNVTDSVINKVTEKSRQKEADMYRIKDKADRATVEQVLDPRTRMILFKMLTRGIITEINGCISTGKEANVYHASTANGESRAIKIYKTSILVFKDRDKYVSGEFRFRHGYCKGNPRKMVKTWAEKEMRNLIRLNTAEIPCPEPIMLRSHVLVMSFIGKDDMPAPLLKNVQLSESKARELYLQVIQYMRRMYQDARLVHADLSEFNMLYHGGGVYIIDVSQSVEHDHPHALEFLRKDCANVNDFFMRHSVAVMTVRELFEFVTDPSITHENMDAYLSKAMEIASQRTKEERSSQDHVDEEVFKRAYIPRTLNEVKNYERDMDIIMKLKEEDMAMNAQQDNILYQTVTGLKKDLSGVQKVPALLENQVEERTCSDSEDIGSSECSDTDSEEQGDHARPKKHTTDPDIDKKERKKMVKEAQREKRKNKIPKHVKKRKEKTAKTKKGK
Sequence of UniProt Q32MK0 (whole entry, looked up): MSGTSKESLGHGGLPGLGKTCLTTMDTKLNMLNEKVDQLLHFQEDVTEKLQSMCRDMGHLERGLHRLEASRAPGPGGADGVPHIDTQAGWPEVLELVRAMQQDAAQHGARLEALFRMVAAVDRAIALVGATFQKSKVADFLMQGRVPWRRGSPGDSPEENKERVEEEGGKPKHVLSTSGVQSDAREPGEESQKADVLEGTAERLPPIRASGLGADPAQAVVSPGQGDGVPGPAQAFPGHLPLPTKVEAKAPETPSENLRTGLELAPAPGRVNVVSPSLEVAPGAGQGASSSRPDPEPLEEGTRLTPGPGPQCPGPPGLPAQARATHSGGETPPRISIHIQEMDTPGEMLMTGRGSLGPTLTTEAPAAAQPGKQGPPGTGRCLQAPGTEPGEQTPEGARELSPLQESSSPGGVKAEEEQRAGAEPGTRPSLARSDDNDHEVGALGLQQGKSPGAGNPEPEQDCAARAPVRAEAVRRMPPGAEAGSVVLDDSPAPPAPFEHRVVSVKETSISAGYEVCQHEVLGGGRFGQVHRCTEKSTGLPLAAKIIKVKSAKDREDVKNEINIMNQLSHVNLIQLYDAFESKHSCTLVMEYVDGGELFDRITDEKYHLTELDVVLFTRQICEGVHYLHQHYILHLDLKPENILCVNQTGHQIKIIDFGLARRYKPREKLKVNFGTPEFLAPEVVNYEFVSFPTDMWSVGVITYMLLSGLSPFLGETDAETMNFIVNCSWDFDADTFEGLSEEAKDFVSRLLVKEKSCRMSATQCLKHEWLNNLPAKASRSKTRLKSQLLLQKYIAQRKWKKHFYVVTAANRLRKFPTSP

Sample 1
Target: PABPC1L2, full length, GST fusion (mouse, UniProt A0ABA7IW68)
Technique: RNAcompete
Molecule type: RNA
Sample: in vitro
Concentration: 20 nM
Setting: 7-mer, probes averaged, single round
Relative to: mean of 7-mers
Reading: higher = stronger binding
Residues (chain): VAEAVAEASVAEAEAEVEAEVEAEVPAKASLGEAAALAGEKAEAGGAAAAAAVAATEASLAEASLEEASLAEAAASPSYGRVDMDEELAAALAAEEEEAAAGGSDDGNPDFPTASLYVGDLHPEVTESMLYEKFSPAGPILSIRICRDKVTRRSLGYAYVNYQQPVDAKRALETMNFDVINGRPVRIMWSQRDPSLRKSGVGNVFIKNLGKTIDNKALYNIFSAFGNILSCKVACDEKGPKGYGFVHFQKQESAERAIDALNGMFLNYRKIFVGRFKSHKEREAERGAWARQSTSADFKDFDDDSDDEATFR
For `GUGAACU`, the 7-mer Z-score was -0.197.
`UCUCGAG` has a 7-mer Z-score of -0.309.
`UGAAUAA` gave a 7-mer Z-score of 0.461.
`GAGGGGC` gave a 7-mer Z-score of 0.242.
`CAACAUU` gave a 7-mer Z-score of -0.0772.
For `GGUCGGA`, the 7-mer Z-score was -0.0355.
`AACUGGA` gave a 7-mer Z-score of 0.148.
For `AAAACGU`, the 7-mer Z-score was 2.61.

Sample 2
SMILES: CN([C@@H]1CCc2c(CC(=O)O)c3ccccc3n2C1)S(=O)(=O)c1ccc(F)cc1
Observed: cell-free assay
Technique: competition with immobilised ligand
Concentration: 1 µM
MYLK3 (Homo sapiens, UniProt Q32MK0) — remaining binding: 95%.
KIT (Homo sapiens, UniProt P10721, V559D) — remaining binding: 100%.
For RIOK1 (Homo sapiens, UniProt Q9BRS2): remaining binding read 100%.
The remaining binding was 100% (FRK (Homo sapiens, UniProt P42685)).
ULK2 (Homo sapiens, UniProt Q8IYT8) — remaining binding: 100%.

Sample 3
Target: Phosphate system positive regulatory protein PHO4, full length, GST-tagged (PHO4, Saccharomyces cerevisiae, UniProt P07270, residues 1-312)
Technique: competition protein-binding microarray
Molecule type: double-stranded DNA, one strand shown
Sample: in vitro
Concentration: 2 µM
Setting: whole 60-bp probe, lowest competitor level
Added: Cbf1 competitor, 0.05 µM
Reading: higher = stronger binding
All sequences stand within: … GTCTTGATTCGCTTGACGCTGCTG
Construct (chain): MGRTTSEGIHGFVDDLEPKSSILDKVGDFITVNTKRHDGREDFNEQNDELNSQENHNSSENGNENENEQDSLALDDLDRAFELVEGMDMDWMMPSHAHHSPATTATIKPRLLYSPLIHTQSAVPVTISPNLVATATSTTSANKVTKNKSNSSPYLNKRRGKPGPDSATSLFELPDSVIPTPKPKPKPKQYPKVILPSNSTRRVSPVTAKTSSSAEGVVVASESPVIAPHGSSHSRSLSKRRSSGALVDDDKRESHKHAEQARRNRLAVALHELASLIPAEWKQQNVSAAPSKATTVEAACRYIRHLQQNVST
`CGTCCTAGTGATTTTCACGTGTATTCCATGAGGAAG` gave a fluorescence intensity of 12300 a.u.
`GATTCAAGCTTCTTTTGCGTGATGGAATTTAGGATT` has a fluorescence intensity of 3730 a.u.
`TCGCGAACCCCGTCAACCGTGATGGACGAGATATGA` gave a fluorescence intensity of 3880 a.u.
`GCGCTGCTGGTGGTGCCCGTGGTGAAGCCAAGGTCG` has a fluorescence intensity of 7040 a.u.
For `AAAGCGGTAATTTGGGAGGTGGGTGCAGATATCTAT`, the fluorescence intensity was 4760 a.u.
`GCTGTGTGAGCGGCCCTCGTGGCTCGGGAGGTGCTG` gave a fluorescence intensity of 13100 a.u.
`ACATAGTAGGAAAATAATGTGCGTAGAATGATAAGA` gave a fluorescence intensity of 5870 a.u.
For `CCATAGGTTCACATCCATGTGCACTGGTGCTGCGTT`, the fluorescence intensity was 8980 a.u.

Sample 4
Target: MAP kinase-activated protein kinase 2 (MAPKAPK2, Homo sapiens, UniProt P49137)
Sequence of UniProt P49137 (whole entry, looked up): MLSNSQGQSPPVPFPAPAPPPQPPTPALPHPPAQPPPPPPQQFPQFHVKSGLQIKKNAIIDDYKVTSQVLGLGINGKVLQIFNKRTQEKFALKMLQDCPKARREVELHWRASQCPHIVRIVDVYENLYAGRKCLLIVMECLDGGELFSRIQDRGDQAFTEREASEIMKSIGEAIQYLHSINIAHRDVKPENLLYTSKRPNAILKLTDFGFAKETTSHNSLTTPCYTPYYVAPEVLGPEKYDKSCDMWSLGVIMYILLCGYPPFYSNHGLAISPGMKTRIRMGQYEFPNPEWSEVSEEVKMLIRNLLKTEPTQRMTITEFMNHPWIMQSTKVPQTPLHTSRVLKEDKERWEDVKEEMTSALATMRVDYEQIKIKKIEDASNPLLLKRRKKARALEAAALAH
Observed: enzyme activity
Action: inhibitor
Concentration: 0.5 µM
Relative to: control
C#Cc1cccc(Nc2ncnc3cc(OCCOC)c(OCCOC)cc23)c1 has a remaining activity of 96.2%.
The remaining activity of CO[C@H]1C[C@@H]2CC[C@@H](C)[C@@](O)(O2)C(=O)C(=O)N2CCCC[C@H]2C(=O)O[C@H]([C@H](C)C[C@@H]2CC[C@@H](O)[C@H](OC)C2)CC(=O)[C@H](C)/C=C(\C)[C@@H](O)[C@@H](OC)C(=O)[C@H](C)C[C@H](C)/C=C/C=C/C=C/1C is reported as 101%.
O=C1NC(=O)C(c2cn(CCCn3ccnc3)c3ccccc23)=C1Nc1ccccc1 gave a remaining activity of 102%.
COc1ccc(OC)c2c(=S)c3ccccc3[nH]c12 has a remaining activity of 94.6%.
Nc1ccc2ncnc(NCCc3ccc(Oc4ccccc4)cc3)c2c1 has a remaining activity of 108%.
With O=C(Nc1cccc(Nc2cc(Nc3cccc(C(F)(F)F)c3)ncn2)c1)C1CC1 the remaining activity was 104%.
NCCNc1ncc(C(N)=O)c(Nc2cccc(C(F)(F)F)c2)n1 gave a remaining activity of 99.2%.
CNC(=O)c1cc(Oc2ccc(NC(=O)Nc3ccc(Cl)c(C(F)(F)F)c3)cc2)ccn1 gave a remaining activity of 100%.
For O=S(=O)(c1cccc2cnccc12)N1CCCNCC1, the remaining activity was 101%.
